Published values collected from several papers.
Protocols differ between the studies behind these lines. ± gives the spread as reported.

For `CC[C@H](C)[C@H](NC(=O)[C@H](CCCCN)NC(=O)[C@H](CCCCN)NC(=O)[C@H](CC(C)C)NC(=O)[C@H](Cc1c[nH]c2ccccc12)NC(=O)CN)C(=O)NCC(=O)N[C@@H](CCCCN)C(=O)N[C@@H](CCCCN)C(=O)N[C@H](C(=O)N[C@@H](CCC(=O)O)C(=O)N[C@@H](CCCNC(=N)N)C(=O)N[C@H](C(=O)NCC(=O)N[C@@H](CCC(N)=O)C(=O)N[C@@H](Cc1c[nH]cn1)C(=O)N[C@H](C(=O)N[C@@H](CCCNC(=N)N)C(=O)N[C@@H](CC(=O)O)C(=O)N[C@@H](C)C(=O)N[C@H](C(=O)N[C@H](C(=O)N[C@@H](CCC(N)=O)C(=O)N[C@H](C(=O)N[C@H](C(=O)NCC(=O)N[C@H](C(=O)N[C@@H](C)C(=O)N[C@@H](CCC(N)=O)C(=O)N[C@@H](CCC(N)=O)C(=O)N[C@@H](C)C(=O)N[C@@H](C)C(=O)N[C@@H](CC(N)=O)C(=O)N[C@H](C(=O)N[C@@H](C)C(=O)N[C@@H](C)C(=O)N[C@H](C(=O)N[C@@H](CC(C)C)C(=O)N[C@@H](CCCCN)C(N)=O)[C@@H](C)O)C(C)C)C(C)C)[C@@H](C)CC)[C@@H](C)O)[C@@H](C)CC)[C@@H](C)O)[C@@H](C)O)C(C)C)[C@@H](C)CC`, the MIC was roughly 0.25 µg/mL (E. coli, K. pneumoniae, A. baumannii; CAMHB with 10% human serum).
`Nc1ccn(C2CCC(OC(C(=O)O)P(=O)(O)O)C2)c(=O)n1` (racemic) gave a fold resistance of 0.3 fold (HIV-1 reverse transcriptase K70Q; enzyme activity, inhibitor; added: poly(rI)·oligo(dC), [3H]dCTP; relative to: mutant over wild type).
`CC[C@H](C)[C@H](NC(=O)[C@H](CCCCN)NC(=O)[C@H](Cc1ccc(O)cc1)NC(=O)[C@H](CCC(N)=O)NC(=O)[C@H](Cc1c[nH]cn1)NC(=O)[C@@H](NC(=O)[C@H](Cc1ccccc1)NC(=O)[C@H](Cc1c[nH]cn1)NC(=O)[C@@H](NC(=O)[C@@H](NC(=O)CNC(=O)[C@H](CCCNC(=N)N)NC(=O)[C@H](Cc1c[nH]c2ccccc12)NC(=O)[C@H](CC(C)C)NC(=O)[C@H](CO)NC(=O)[C@H](CCC(=O)O)NC(=O)[C@H](CC(C)C)NC(=O)[C@H](CCC(=O)O)NC(=O)[C@H](CC(N)=O)NC(=O)[C@H](CC(C)C)NC(=O)[C@H](CC(=O)O)NC(=O)[C@H](CO)NC(=O)[C@H](CCC(=O)O)NC(=O)[C@@H](NC(=O)[C@H](CC(C)C)NC(=O)[C@H](CCC(N)=O)NC(=O)[C@H](CCC(=O)O)NC(=O)[C@H](CCC(=O)O)NC(=O)[C@H](CC(C)C)NC(=O)[C@@H]1CCCN1C(=O)[C@@H](N)Cc1ccccc1)[C@@H](C)O)[C@@H](C)O)[C@@H](C)O)C(C)C)C(=O)N[C@@H](CCSC)C(=O)N1CCC[C@H]1C(=O)N[C@@H](Cc1ccccc1)C(=O)N[C@@H](CCCNC(=N)N)C(=O)N[C@@H](CCCCN)C(=O)N[C@@H](CC(C)C)C(=O)N[C@H](C(=O)N[C@@H](Cc1ccccc1)C(=O)N[C@@H](CCCCN)C(=O)N[C@@H](CCCNC(=N)N)C(=O)N[C@@H](CCCNC(=N)N)C(=O)N[C@@H](CCCCN)C(=O)N[C@@H](CC(N)=O)C(N)=O)C(C)C` gave an MIC of greater than 50 µM (Staphylococcus aureus; broth microdilution; MRSA ATCC 33592).
With `O=C(NCc1ccc(F)cc1F)c1cn2ccn(CCCCCO)c(=O)c2c(O)c1=O` the EC50 was 16.1 ± 1 nM (human immunodeficiency virus 1; single-round vector infection; integrase R263K).
`CC[C@H](C)[C@@H]1NC(=O)[C@H](CC(=O)O)NC(=O)[C@H]([C@@H](C)O)NC(=O)[C@@H]2CSSC[C@@H]3NC(=O)[C@H](CC(C)C)NC(=O)[C@H](CC(N)=O)NC(=O)[C@H](CC(C)C)NC(=O)[C@H](CCCNC(=N)N)NC(=O)[C@H](Cc4ccc(O)cc4)NC(=O)[C@H](CCCCN)NC(=O)[C@H](CCSC)NC(=O)[C@H](CO)NC(=O)[C@H]([C@@H](C)O)NC(=O)[C@H](CCCNC(=N)N)NC(=O)[C@H](CSSC[C@H](NC(=O)[C@H]([C@@H](C)O)NC(=O)[C@H](CCCCN)NC(=O)[C@H](CCCNC(=N)N)NC3=O)C(=O)NCC(=O)N[C@@H](CO)C(=O)N[C@H](C(=O)O)CSSC[C@H](NC(=O)[C@@H](NC(=O)[C@@H](N)CCCNC(=N)N)[C@@H](C)O)C(=O)N[C@@H](CCCCN)C(=O)N[C@@H](CC(=O)O)C(=O)N[C@@H](CC(C)C)C(=O)N[C@@H]([C@@H](C)CC)C(=O)N3CCC[C@H]3C(=O)N[C@@H](C(C)C)C(=O)N[C@@H](CO)C(=O)N[C@@H](CCC(=O)O)C(=O)N2)NC(=O)[C@H](CCCNC(=N)N)NC1=O` — result for “fold decrease in affinity”: roughly 550 fold (KcsA-Shaker chimera channel Y82V; two-electrode voltage clamp; Xenopus oocytes; 0 mV; relative to: KcsA-Shaker).
For `CC(C)n1ccn2cc(C(=O)NCc3ccc(F)cc3F)c(=O)c(O)c2c1=O`, the EC50 was 260 ± 48.2 nM (HIV-1; viral replication, single-round vector infection; IN T97A/G140S/Q148H).
The EC50 of `Cc1cc(/C=C/C#N)cc(C)c1Nc1nc(Nc2ccc(C#N)cc2)ncc1N` is reported as 2.4 ± 0.2 nM (HIV-1; viral replication, single-round infection; RT mutant E138K/M184V).
For `CC(C)C[C@H](NC(=O)[C@@H]1CCCN1C(=O)[C@@H]1CCCN1C(=O)[C@H](CCCNC(=N)N)NC(=O)[C@H](CCCNC(=N)N)NC(=O)[C@H](CCCNC(=N)N)NC(=O)[C@H](CCC(N)=O)NC(=O)[C@H](CCCNC(=N)N)NC(=O)[C@H](CCCNC(=N)N)NC(=O)[C@H](CCCCN)NC(=O)[C@H](CCCCN)NC(=O)[C@H](CCCNC(=N)N)NC(=O)CNC(=O)[C@@H](N)Cc1ccc(O)cc1)C(=O)N[C@@H](CCCNC(=N)N)C(=O)N[C@@H](CCCCN)C(=O)N[C@@H](CCCCN)C(=O)N[C@@H](CCCCN)C(=O)N[C@@H](CCCCN)C(=O)N[C@@H](CCCCN)C(=O)N[C@@H](Cc1c[nH]cn1)C(N)=O`, “mean arterial pressure increase” read no more than 18 mmHg (telemetry; mouse, awake; intraperitoneal, dose not given).
`CC[C@H](C)[C@H](NC(=O)[C@H](Cc1ccccc1)NC(=O)[C@@H](NC(=O)[C@@H](NC(=O)[C@H](CC(C)C)NC(=O)[C@H](CCCCN)NC(=O)[C@@H](N)CCCCN)[C@@H](C)CC)[C@@H](C)O)C(=O)N[C@@H](CC(C)C)C(=O)N[C@@H](CCCCN)C(=O)N[C@@H](CCCCN)C(=O)N[C@H](C(=O)N[C@@H](CCCNC(=N)N)C(=O)N[C@@H](CCC(=O)O)C(=O)N[C@@H](CCCCN)C(=O)N[C@@H](CCCCN)C(=O)N[C@@H](CCCCN)C(=O)N[C@@H](CCC(=O)O)C(=O)N[C@@H](CS)C(=O)N[C@@H](CC(C)C)C(=O)N[C@H](C(=O)O)C(C)C)[C@@H](C)O`: “decay time constant” 12.3 ± 0.6 ms (TTX-sensitive sodium channel (mouse); resurgent sodium current, open-channel blocker, whole-cell patch clamp; mouse hippocampal CA3 neurons; 200 µM intracellular, 22 °C, step to +30 mV, 10 ms, added: repolarisation to -30 mV).
`CCCCCCCCCCCCCCCC(=O)N[C@@H](CCC(=O)NCCOCCOCCC(=O)NCCOCCOCCC(=O)NCCCC[C@H](NC(=O)[C@H](CC(=O)O)NC(=O)[C@H](CC(C)C)NC(=O)[C@H](Cc1ccc(O)cc1)NC(=O)[C@H](CCCCN)NC(=O)[C@H](CO)NC(=O)[C@H](Cc1ccc(O)cc1)NC(=O)[C@H](CC(=O)O)NC(=O)[C@H](CO)NC(=O)[C@@H](NC(=O)[C@H](Cc1ccccc1)NC(=O)[C@@H](NC(=O)CNC(=O)[C@H](CCC(N)=O)NC(=O)[C@@H](CO)NC(=O)[C@@H](N)Cc1c[nH]cn1)[C@@H](C)O)[C@@H](C)O)C(=O)N[C@@H](CCCNC(=N)N)C(=O)N[C@@H](CCCNC(=N)N)C(=O)N[C@@H](C)C(=O)N[C@@H](CCC(N)=O)C(=O)N[C@@H](CC(=O)O)C(=O)N[C@@H](Cc1ccccc1)C(=O)N[C@H](C(=O)N[C@@H](CCC(N)=O)C(=O)N[C@@H](Cc1c[nH]c2ccccc12)C(=O)N[C@@H](CC(C)C)C(=O)N[C@@H](CC(C)C)C(=O)N[C@@H](CC(N)=O)C(=O)N[C@H](C(=O)NCC(=O)NCC(=O)N1CCC[C@H]1C(=O)N[C@@H](CO)C(=O)N[C@@H](CO)C(=O)NCC(=O)N[C@@H](C)C(=O)N1CCC[C@H]1C(=O)N1CCC[C@H]1C(=O)N1CCC[C@H]1C(=O)N[C@@H](CO)C(N)=O)[C@@H](C)O)C(C)C)C(=O)O` — result for “serum ALT and AST”: “decreased” (Sprague-Dawley rat CCl4 model; dose not given).
For `Cc1cc(/C=C/C#N)cc(C)c1-n1cnc2cnc(Nc3ccc(C#N)cc3)nc21`, the EC50 was 16.6 ± 0.5 nM (HIV-1; viral replication, single-round infection; RT mutant K101P/V179I).
With `CC(C)N1CCn2cc(C(=O)NCc3ccc(F)cc3F)c(=O)c(O)c2C1=O` the EC50 was 27.3 ± 5.2 nM (human immunodeficiency virus 1; single-round vector infection; integrase G140S/Q148H).
With `N=C(N)NCc1cn([C@@H]2[C@@H](OCCn3cc(-c4cc(OCCOCCO)c(C#Cc5cc(OCCOCCO)c(C#Cc6cc(OCCOCCO)c(-c7cn(CCO[C@H]8O[C@H](CO)[C@@H](O)[C@H](O)[C@@H]8n8cc(CNC(=N)N)nn8)nn7)cc6OCCOCCO)cc5OCCOCCO)cc4OCCOCCO)nn3)O[C@H](CO)[C@@H](O)[C@@H]2O)nn1.O=CO.O=CO` the inhibition was 84% (L-SIGN (human); viral trans-infection; Jurkat expressing L-SIGN, Ebola virus; 0.5 µM, rVSV-luc pseudovirus).
`Cc1ccc(NS(=O)(=O)c2c(C(=O)N3CCCCCC3)c(C)n(C)c2C)c(Cl)c1` gave a relative infection of 0% (Monkeypox virus; Vero C1008, wild type; 30 µM, 72 h; relative to: untreated).
The EC50 of `COCCCN1CCn2cc(C(=O)NCc3ccc(F)cc3F)c(=O)c(O)c2C1=O` is reported as 8.6 ± 0.6 nM (human immunodeficiency virus 1; single-round vector infection; integrase R263K).

Some of these lines once more:
With `N=C(N)NCc1cn([C@@H]2[C@@H](OCCn3cc(-c4cc(OCCOCCO)c(C#Cc5cc(OCCOCCO)c(C#Cc6cc(OCCOCCO)c(-c7cn(CCO[C@H]8O[C@H](CO)[C@@H](O)[C@H](O)[C@@H]8n8cc(CNC(=N)N)nn8)nn7)cc6OCCOCCO)cc5OCCOCCO)cc4OCCOCCO)nn3)O[C@H](CO)[C@@H](O)[C@@H]2O)nn1.O=CO.O=CO` the inhibition was 84% (L-SIGN (human); viral trans-infection; Jurkat expressing L-SIGN, Ebola virus; 0.5 µM, rVSV-luc pseudovirus).
